{"data": "Published values gathered from unrelated publications", "KIT V559D/V654A": "Mast/stem cell growth factor receptor Kit (KIT, Homo sapiens, UniProt P10721, V559D/V654A)", "KIT D816V": "Mast/stem cell growth factor receptor Kit (KIT, Homo sapiens, UniProt P10721, D816V)", "KIT L576P": "Mast/stem cell growth factor receptor Kit (KIT, Homo sapiens, UniProt P10721, L576P)", "KIT T670I/V559D": "Mast/stem cell growth factor receptor Kit (KIT, Homo sapiens, UniProt P10721, T670I/V559D)", "note": "Protocols differ between the studies behind these lines."}
{"SMILES": "CCN1CCN(Cc2ccc(NC(=O)c3ccc(C)c(NC(=O)c4cncc(-c5cccs5)c4)c3)cc2C(F)(F)F)CC1", "target": "KIT V559D/V654A", "assay": "binding, competition with immobilised ligand", "conditions": "1 µM", "remaining binding": "6.8%"}
{"SMILES": "CCN1CCN(Cc2ccc(C(=O)Nc3ccc(C)c(NCc4cnc5[nH]ccc5c4OC)c3)cc2C(F)(F)F)CC1", "target": "KIT D816V", "assay": "binding, competition with immobilised ligand", "conditions": "1 µM", "remaining binding": "22%"}
{"SMILES": "CC(=O)N1c2ccc(-c3ccc(CNC(=O)c4cn5cc(-c6cnc(N)nc6)nc(N6CCOCC6)c5n4)cc3)cc2CC[C@@H]1C", "target": "KIT D816V", "assay": "KINOMEscan", "conditions": "10 µM", "remaining binding": "100%"}
{"SMILES": "Cc1ccc(-c2c(/C=C(\\C#N)C(=O)NC(C)C)n(CCCO)c3ncnc(N)c23)cc1", "target": "KIT L576P", "assay": "cell-free assay, competition with immobilised ligand", "conditions": "1 µM", "remaining binding": "45%"}
{"SMILES": "C=C1C[C@]2(C(=O)OC)C=C(C(=O)Nc3cccc(C(=O)Nc4ccc(Nc5nccc(-c6cccnc6)n5)c(C)c4)c3)C(=O)[C@H]1C2", "target": "KIT (Homo sapiens, UniProt P10721)", "assay": "binding, competition with immobilised ligand", "conditions": "1 µM", "remaining binding": "49%"}
{"SMILES": "C=CC(=O)N1CCc2ccc(-n3c(=O)ccc4cnc5ccc(-c6cnn(C)c6)cc5c43)cc21", "target": "KIT D816V", "assay": "KINOMEscan", "conditions": "1 µM", "scale": "baseline: DMSO control", "remaining binding": "92%"}
{"SMILES": "CC(C)=CC1OC(C)(C)C2C=C3C(=O)C(Cl)=CC(O)C3C3C(O)C4OC4C(=O)C132 (stereo not shown)", "target": "KIT L576P", "assay": "cell-free assay, competition with immobilised ligand", "conditions": "10 µM", "remaining binding": "99%"}
{"SMILES": "Cc1cnc2nc1Nc1cccc(c1)COC/C=C/COCc1cc(ccc1OCCN1CCOCC1)N2", "target": "KIT (Homo sapiens, UniProt P10721, V559D)", "assay": "binding", "conditions": "0.1 µM", "remaining binding": "19%"}
{"SMILES": "Nc1ncc2c(n1)-c1c([nH]c3ccc(C4=CCOCC4)cc13)CCC2", "target": "KIT D816V", "assay": "binding, competition with immobilised ligand", "conditions": "1 µM", "remaining binding": "100%"}
{"SMILES": "CNC(=O)C1CCN(c2cc(C)c(F)cc2NC(=O)c2ccc(-c3cc(O)ccc3C)c(C)c2)CC1", "target": "KIT L576P", "assay": "binding, competition with immobilised ligand", "conditions": "1 µM", "remaining binding": "69%"}
{"SMILES": "Cc1ccc(C(=O)Nc2cccc(C(F)(F)F)c2)cc1Nc1cncc(C(N)=O)c1", "target": "KIT V559D/V654A", "assay": "binding, competition with immobilised ligand", "conditions": "1 µM", "remaining binding": "18%"}
{"SMILES": "COc1c(Cl)cccc1Nc1c(-c2ccncc2C#C[C@@]2(C)CCCN2C(=O)/C=C/CN(C)C)[nH]c2c1C(=O)NCC2", "target": "KIT (Homo sapiens, UniProt P10721, A829P)", "assay": "binding, competition with immobilised ligand", "conditions": "3 µM", "remaining binding": "85%"}
{"SMILES": "CN1CCN(Cc2ccc(NC(=O)c3cccc(C#Cc4cnc(N)c5ncccc45)c3)cc2C(F)(F)F)CC1", "target": "KIT T670I/V559D", "assay": "cell-free assay, competition with immobilised ligand", "conditions": "50 nM", "remaining binding": "1.6%"}
{"SMILES": "CNS(=O)(=O)Nc1nccc(Cc2c(C)c3ccc(Oc4ncccc4F)cc3oc2=O)c1F", "target": "KIT T670I/V559D", "assay": "binding, competition with immobilised ligand", "conditions": "10 µM", "remaining binding": "98%"}
{"SMILES": "CNC1C[S+]2CC[S+]3CC[S+](C1)[Ru-4]321([N]=C=S)[n]2c3ccc(OC)cc3c3c4c(c5cc(F)c[n+]1c5c32)C(=O)NC4=O (stereo not shown)", "target": "Mast/stem cell growth factor receptor Kit, autoinhibited (KIT, Homo sapiens, UniProt P10721)", "assay": "KinomeScan", "conditions": "0.1 µM", "scale": "baseline: untreated", "remaining binding": "95%"}
{"SMILES": "C=CC(=O)N1CCCC(n2c(=O)c3ncccc3n(Cc3ccc(Oc4ccccc4)cc3)c2=O)C1 (stereo not shown)", "target": "KIT V559D/V654A", "assay": "cell-free assay, competition with immobilised ligand", "conditions": "1 µM", "remaining binding": "100%"}
